Results of several laboratories.
“And” joins repeats or separate records; there may be more than shown. Numbers after ± are the reported error.

Compound	test	test system	conditions	how to read	measurement	value
Cn1cc(-c2nc(N[C@@H]3CCCC[C@@H]3N)c(F)c3c2C(=O)NC3)cn1	any bleeding	patients with relapsed or refractory AML	oral, 160 mg once daily	–	adverse events	67%
COc1ccc2nc3cc(Cl)ccc3c(Nc3cc(CN4CCCC4)c(O)c(CN4CCCC4)c3)c2n1	–	mouse, blood	intraperitoneal, 14 mg/kg	–	urea level	2.2 µmol/L
CCN1CCN(Cc2ccc(Nc3ncc(F)c(-c4cc(F)c5nc6n(c5c4)[C@H](C)CCC6)n3)nc2)CC1	–	advanced solid tumour patients	dose not given, Phase Ia monotherapy	–	Hypertriglyceridemia incidence, any grade	70.8%
O=C(O)Cc1ccccc1Nc1c(Cl)cccc1Cl	–	human liver microsomes 0.5 mg/mL	5 µM, 24 h	–	fu,mic	1
CC(C)[C@@H]1NC(=O)CNC(=O)[C@H](CC(N)=O)NC(=O)[C@H](CCCNC(=N)N)NC(=O)[C@H](Cc2ccc(O)cc2)NC(=O)[C@H](C(C)C)NC(=O)[C@@H](NC(=O)[C@@H](NC(=O)[C@H](CC(N)=O)NC(=O)[C@H](Cc2c[nH]c3ccccc23)NC(=O)[C@H](C)NC(=O)[C@H](Cc2ccccc2)NC(=O)CN)C(C)C)CSSC[C@@H](C(=O)N[C@@H](Cc2cnc[nH]2)C(=O)N[C@@H](CCCNC(=N)N)C(=O)N[C@@H](CCCNC(=N)N)C(=O)N[C@@H](C)C(=O)N[C@@H](CC(N)=O)C(N)=O)NC(=O)[C@H](C(C)C)NC(=O)[C@H](CCCNC(=N)N)NC1=O	–	ICR mice, blood	intraductal mammary, 10 mg/kg, day 5	–	plateletcrit	0.02%
Cc1ccc(F)c2cc(C(=O)N[C@@H]3CCC[C@H](N4CC[C@H](N(C)S(C)(=O)=O)C4)C3)[nH]c12	–	CD1 mouse, plasma	oral, 100 mg/kg, 0.5 h	–	plasma concentration	3170 ng/mL
CC(C)C[C@H](NC(=O)[C@H](CCCCN)NC(=O)OCC1c2ccccc2-c2ccccc21)C(=O)N[C@H](C(=O)N[C@@H](Cc1ccccc1)C(=O)N[C@@H](Cc1ccccc1)C(=O)N[C@@H](CCCCN)C(=O)NCC(=O)N[C@@H](Cc1ccccc1)C(=O)N[C@@H](C)C(=O)N[C@@H](Cc1c[nH]c2ccccc12)C(=O)N[C@@H](CC(N)=O)C(=O)N[C@H](C(=O)N[C@H]1CSSC[C@@H](C(=O)N[C@@H](Cc2c[nH]cn2)C(=O)N[C@@H](CCCNC(=N)N)C(=O)N[C@@H](CCCNC(=N)N)C(=O)N[C@@H](C)C(=O)N[C@@H](CC(N)=O)C(N)=O)NC(=O)[C@H](C(C)C)NC(=O)[C@H](CCCNC(=N)N)NC(=O)[C@H](C(C)C)NC(=O)CNC(=O)[C@H](CC(N)=O)NC(=O)[C@H](CCCNC(=N)N)NC(=O)[C@H](Cc2ccc(O)cc2)NC(=O)[C@H](C(C)C)NC1=O)C(C)C)C(C)C	–	ICR mice, blood	intraperitoneal, 10 mg/kg, day 5	–	neutrophils	20 ± 1%
CC(=O)c1c(C)c2cnc(Nc3ccc(C4CCN(CCS(C)(=O)=O)CC4)cn3)nc2n(C2CCCC2)c1=O	–	human, plasma	oral, 75 mg twice daily, day 21, multiple dose, added: letrozole	–	half-life	8.13 h
C[C@]1(CO)Cc2ncn(-c3ccc(C#N)c(Cl)c3)c2C(=O)O1	–	human, plasma	20 mg once daily, fasted	–	half-life at steady state	5.2 h
CC(C)(C)c1cc(-n2nc3ccccc3n2)c(O)c(C(C)(C)C)c1	exposure assessment	human, age 6-11 years	sunscreen	–	mean daily dermal uptake	1.6 ng/kg body weight/day
COc1ccc(CCC2CCCC(CCc3ccc(OC)cc3)N2C[C@@H](O)CO)cc1.Cl (stereo in doubt)	–	rabbit Purkinje fibres	0.1 µM, cycle length 1 s	reference: baseline	action potential amplitude change	-0.1 ± 3.6 mV
COc1cc2c(Oc3ccc4[nH]c(C)cc4c3F)ccnc2cc1OCC1(N)CC1	–	paediatric refractory sarcoma patients	8 mg	–	sinus tachycardia incidence	0%
COc1ncccc1-c1cnn2ccc(N3CCN(C(=O)OC(C)C)CC3)nc12	–	mouse nerve ligation model, plasma	oral, 10 mg/kg, 30 min after last dose, repeat dosing day 4	–	drug concentration	2300 nM
O=C1Nc2cc3[nH]nc(-c4ccncc4)c3cc2CN1Cc1ccccc1	CTCAE v4.03	advanced solid tumour patients	intravenous, 7.2 mg/kg, schedules 1/2	–	patients with decreased appetite	20%
CC[C@H](C)[C@H](NC(=O)[C@H](Cc1ccccc1)NC(=O)[C@H](CCC(=O)O)NC(=O)[C@H](CCCNC(=N)N)NC(=O)[C@H](C)NC(=O)[C@H](C)NC(=O)[C@H](CCC(N)=O)NC(=O)[C@H](CCC(=O)O)NC(=O)[C@H](CCC(=O)O)NC(=O)[C@H](CC(C)C)NC(=O)[C@H](Cc1ccc(O)cc1)NC(=O)[C@H](CO)NC(=O)[C@H](CO)NC(=O)[C@@H](NC(=O)[C@H](CC(=O)O)NC(=O)[C@H](CO)NC(=O)[C@@H](NC(=O)[C@H](Cc1ccccc1)NC(=O)[C@@H](NC(=O)CNC(=O)[C@H](CCC(=O)O)NC(=O)[C@H](C)NC(=O)CCc1cnc[nH]1)[C@@H](C)O)[C@@H](C)O)C(C)C)C(=O)N[C@@H](C)C(=O)N[C@@H](Cc1c[nH]c2ccccc12)C(=O)N[C@@H](CC(C)C)C(=O)N[C@H](C(=O)N[C@@H](CCCNC(=N)N)C(=O)NCC(=O)N[C@@H](CCCNC(=N)N)C(=O)N[C@@H](CCCCNC(=O)COCCOCCNC(=O)COCCOCCNC(=O)CC[C@H](NC(=O)CCCCCCCCCCCCCCCCC(=O)O)C(=O)O)C(=O)NCC(=O)NCC(=O)N[C@@H](CO)C(=O)N[C@@H](CCCCNC(=O)[C@H](CCCCNC(=O)[C@H](CCCCNc1c(NCCCCCN(O)C(=O)CCC(=O)NCCCCCN(O)C(=O)CCC(=O)NCCCCCN(O)C(C)=O)c(=O)c1=O)Nc1c(NCCCCCN(O)C(=O)CCC(=O)NCCCCCN(O)C(=O)CCC(=O)NCCCCCN(O)C(C)=O)c(=O)c1=O)NC(=O)[C@H](CCCCNc1c(NCCCCCN(O)C(=O)CCC(=O)NCCCCCN(O)C(=O)CCC(=O)NCCCCCN(O)C(C)=O)c(=O)c1=O)Nc1c(NCCCCCN(O)C(=O)CCC(=O)NCCCCCN(O)C(=O)CCC(=O)NCCCCCN(O)C(C)=O)c(=O)c1=O)C(=O)O)C(C)C [zirconium-89 labelled]	ex vivo gamma counting	male Sprague-Dawley rats, duodenum	intravenous, 1 nmol, 24 h	–	tissue uptake	0.411 %ID/g
Cn1ncc(-c2nc(N[C@H]3CC[C@H](N)CC3)ncc2Cl)c1CC1CC1	phase I dose escalation	human patients	dose not given, grade 3 or higher TEAE	–	acute respiratory failure incidence	10%
CO[C@H]1C[C@@H]2CC[C@@H](C)[C@@](O)(O2)C(=O)C(=O)N2CCCC[C@H]2C(=O)O[C@H]([C@H](C)C[C@@H]2CC[C@@H](OC(=O)NCCOCCOCCOCCOCCOCCOCCOCCOCCC(=O)N3CCc4cc(Cn5nc(-c6ccc7oc(N)nc7c6)c6c(N)ncnc65)ccc4C3)[C@H](OC)C2)C[C@@H](O)[C@H](C)/C=C(\C)[C@@H](O)[C@@H](OC)C(=O)[C@H](C)C[C@H](C)/C=C/C=C/C=C/1C	–	patients with advanced solid tumours	intravenous, 10 mg weekly, any grade	–	constipation incidence	0%
CCCCCCCCCCCCCCCC(=O)N[C@@H](CCC(=O)NCCCC[C@H](NC(=O)[C@H](CC(=O)O)NC(=O)[C@H](CO)NC(=O)[C@@H](NC(=O)[C@H](Cc1ccccc1)NC(=O)[C@@H](NC(=O)CNC(=O)[C@H](CCC(N)=O)NC(=O)[C@H](CO)NC(=O)[C@@H](N)Cc1c[nH]cn1)[C@@H](C)O)[C@@H](C)O)C(=O)N[C@@H](CO)C(=O)N[C@@H](CCC(=O)O)C(=O)N[C@@H](Cc1ccc(O)cc1)C(=O)N[C@@H](CC(C)C)C(=O)N[C@@H](CC(=O)O)C(=O)N[C@@H](CO)C(=O)N[C@@H](CCC(=O)O)C(=O)N[C@@H](CCCNC(=N)N)C(=O)N[C@@H](C)C(=O)N[C@@H](CCCNC(=N)N)C(=O)N[C@@H](CC(=O)O)C(=O)N[C@@H](Cc1ccccc1)C(=O)N[C@H](C(=O)N[C@@H](C)C(=O)N[C@@H](Cc1c[nH]c2ccccc12)C(=O)N[C@@H](CC(C)C)C(=O)N[C@@H](CCC(=O)O)C(=O)N[C@@H](C)C(=O)NCC(=O)NCC(=O)O)C(C)C)C(=O)O	measured: Hyperglycaemia	humans all renal groups	subcutaneous, 100 µg single dose	–	treatment-related adverse events	2.7%

Compound	test	test system	conditions	how to read	measurement	value
C[C@@H]1NC(=O)[C@H](CCCCNC(=O)CO/N=C/C(=O)NCCCC[C@@H]2NC(=O)[C@@H](Cc3ccccc3)NC(=O)[C@H](CC(=O)O)NC(=O)CNC(=O)[C@H](CCCNC(=N)N)NC2=O)NC(=O)CNC(=O)[C@@H]2CCCN2C(=O)[C@H](CCCCNC(=O)CO/N=C/C(=O)NCCCC[C@@H]2NC(=O)[C@@H](Cc3ccccc3)NC(=O)[C@H](CC(=O)O)NC(=O)CNC(=O)[C@H](CCCNC(=N)N)NC2=O)NC(=O)[C@H](CCCCNC(=O)[C@H](CCCCN)NC(=O)[C@H](Cc2ccccc2)NC(=O)CNC(=O)CN2CCCNCCNCCCNCC2)NC(=O)[C@H](CCCCNC(=O)CO/N=C/C(=O)NCCCC[C@@H]2NC(=O)[C@@H](Cc3ccccc3)NC(=O)[C@H](CC(=O)O)NC(=O)CNC(=O)[C@H](CCCNC(=N)N)NC2=O)NC(=O)CNC(=O)[C@@H]2CCCN2C(=O)[C@H](CCCCNC(=O)CO/N=C/C(=O)NCCCC[C@@H]2NC(=O)[C@@H](Cc3ccccc3)NC(=O)[C@H](CC(=O)O)NC(=O)CNC(=O)[C@H](CCCNC(=N)N)NC2=O)NC1=O [copper-64 labelled]	–	normal mice, intestine	intravenous, 0.74 MBq, 3 h post-injection	–	tissue uptake	1.8 ± 0.12 %ID/g
O=S(=O)(Nc1ccccc1)c1ccc(NC(=S)Nc2ccccc2)cc1	measured: CREA	female mouse, blood	oral, 20 mg/kg daily, 14 days	–	blood chemistry level	0.22 mg/dL
CCc1ccc(CC/C=C/c2ccc3c(c2)C(=O)CC3)cc1	–	Sprague-Dawley rat, female	oral, 30 mg/kg/day, 14 days	–	ALP serum activity	98 U/L
O=C(Nc1ccccc1)C1CCN(C(=O)Oc2cccnc2)CC1	psychotropic effects VAS	healthy women	100 mg	reference: pre-dose baseline, direction not given	change in Thoughts score	0.3
C[C@@H](NC(=O)N1C(=O)[C@H](Cc2ccnc(N)c2)[C@H]1C(=O)O)C1CCCCC1	–	healthy adult Chinese volunteers	continuous intravenous infusion, 2.25 mg/kg/h, 5-day infusion, CTCAE 5.0 grading	–	incidence of decreased neutrophil	0%
S=c1oc(-c2ccccc2)nn1CN1CCN(Cc2ccccc2)CC1	–	Wistar rat female	oral, 500 mg/kg, acute toxicity OECD 423	–	serum ALP	13 ± 1.02 KA/dL
C=CC(=O)N1CC[C@H](n2nc(C#Cc3cc(OC)cc(OC)c3)c3c(N)ncnc32)C1	–	patients with advanced solid tumours	oral, dose not given, Hyperphosphatemia, any grade, QD, all patients	–	adverse drug reaction incidence	100%
O=c1ccc2ncc(=O)n3c2n1C[C@H]3CN1CCC(NCc2cc3c(cn2)OCCC3)CC1	–	healthy human volunteers, plasma	oral, 1500 mg single dose, geometric mean, alone	–	half-life	10.9 h
O=Cc1cn(Cc2cccc(Cl)c2)c2ccccc12	–	male F344 rat, liver	oral, 150 mg/kg/day, 2 days, scale unremarkable to marked	direction not given	liver toxicity severity score	0
COc1cccc(Oc2ccccc2NC(=O)CNC(=O)c2cccc3ccccc23)c1	–	esterase-deficient SCID mice, male	oral, 15 mg/kg/day, 14 days, toxicity study	–	blood urea nitrogen	37 mg/dL and 36 mg/dL and 30 mg/dL
CCCC(CCC)NC(=O)c1ccc2c(c1)OCO2	–	Swiss albino CD-1 mice, male, bone marrow	intraperitoneal, 350 mg/kg, 24 h	–	PCE/NCE ratio	0.8
[O-][S+]1CCc2nc(N3CCC(c4ncc(Cl)cn4)CC3)nc(NC3(CO)CCC3)c21 (stereo not drawn)	–	idiopathic pulmonary fibrosis patients	18 mg twice daily	–	Constipation adverse events	10%
Cc1cn([C@H]2O[C@@H](CO[P@@](=O)(N[C@@H](C)C(=O)OC(C)C)Oc3ccccc3)[C@H](O)[C@H]2F)c(=O)[nH]c1=O	measured: bone pain	human	10 mg	–	patients with TEAE	0%
CC(=O)[C@H]1[C@H](C#N)C[C@H]2[C@@H]3CC=C4C[C@@H](O)CC[C@]4(C)[C@H]3CC[C@@]21C	qPCR, measured: Cyp1a2	wild-type mice, liver	10 mg/kg, 3 days	reference: vehicle	mRNA level	no effect
COc1cc(C(=O)NC2CCN(C)CC2)c(F)cc1Nc1ncc(C(F)(F)F)c(Oc2cccc3c2C(=O)N(C)C3)n1	–	human patients, urine	oral, 100 mg single dose, geometric mean	reference: dose	fraction excreted in urine (0-24 h)	6.23%
CC(C)CC(=O)OC[C@H]1O[C@@](C#N)(c2ccc3c(N)ncnn23)[C@H](O)[C@@H]1O	–	dog plasma	90 µM	–	fraction unbound	0.254
C[C@]1(O)C[C@@](N)(c2ccc(-c3nc4n(c3-c3ccccc3)COc3ccncc3-4)cc2)C1	–	human, advanced or metastatic solid tumours	once daily, dose escalation total, any grade	–	patients with Pruritus TEAE	11.1%
O=C(O)CCCOc1ccc(F)cc1-c1cc(-c2ccccc2C(F)(F)F)n(-c2ccccc2)n1	measured: α1-glb	Crl:CD(SD) rats, male, serum	iv, 25 µg/kg, 14 days	–	serum protein fraction	22 ± 4%
